# Measured values from different studies.
# Values joined by “and” are separate records of one study, mostly repeats; a detail may differ.
# Target: Serine/threonine-protein kinase PAK 3 (PAK3, Homo sapiens, UniProt O75914)
SMILES,test,conditions,how to read,quantity,value
Cc1nc2c(F)cc(-c3nc(Nc4ccc(CNC(=O)CCCCCCC(=O)NO)cc4)ncc3F)cc2n1C(C)C,"enzyme activity, inhibitor",1 µM,,inhibition,47%
CN1CCN(Cc2ccc(-c3ccc(CO[C@H]4CCC[C@@H]4NC(=O)c4cc(-c5cnn(C)c5)cnc4N)cc3)cc2)CC1,"enzyme activity, inhibitor",0.1 µM,,inhibition,12%
CNC(=O)C[C@H](Cc1ccc(C#N)cc1)NC(=O)c1cc(-c2ccc(CN[C@H](C)c3ccc(C)cc3)o2)ccc1Cl,"enzyme activity, inhibitor",1 µM,,activity vs control,96%
O=C(Cc1ccc(OCc2ccccc2)cc1)NC1(C(=O)O)CCN(C(=O)c2ccc(-c3cccc(Cl)c3)cc2)CC1,"enzyme activity, inhibitor",10 µM,,activity vs control,109%
C=CC(=O)Nc1cccc(-c2cnc3[nH]cc(C(=O)NC(C)(C)C)c3n2)c1,kinase activity,0.1 µM,,inhibition,5% and 6%
COc1cc(Nc2nccc(-c3cnn4nc(OC)ccc34)n2)cc(C(F)(F)F)c1,"binding, competition with immobilised ligand",1 µM,,remaining binding,75%
Cc1ccc(-c2c(/C=C(\C#N)C(=O)NC(C)C)n(CCCO)c3ncnc(N)c23)cc1,"cell-free assay, competition with immobilised ligand",1 µM,,remaining binding,69%
Cc1cccc(O[C@H]2CCC[C@@H](C(C)CNCc3ccncc3)C2)c1 (relative stereo),"enzyme activity, inhibitor",10 µM,,inhibition,-13%
CCN1CCN(Cc2ccc(C(=O)Nc3ccc(C)c(NCc4cnc5[nH]ccc5c4OC)c3)cc2C(F)(F)F)CC1,"binding, competition with immobilised ligand",1 µM,,remaining binding,80%
COc1c(OCCCN2CCOCC2)ccc2c1N=C(NC(=O)c1cnc(N)nc1)N1CCN=C21,"kinase activity, inhibitor",1 µM,baseline: untreated control,remaining activity,65%
C[C@H]1CN(C(=O)c2cn(-c3ccnc(N)n3)c3cc(C#CC4(O)CCCCC4)ccc23)CCN1,"enzyme activity, inhibitor, FRET",1 µM,,inhibition,6%
NC(=O)C[C@H]1CCc2sc3ncnc(O[C@H]4CC[C@H](N5CCOCC5)CC4)c3c21,"enzyme activity, inhibitor",10 µM,,inhibition,4%
C=CC(=O)N1Cc2nc(-c3cc(-c4cc(Cl)cnc4Cl)c(F)cc3F)n(-c3ccncn3)c2C1,"cell-free assay, inhibitor",1 µM,,inhibition,12.8%
COc1c(Cl)cccc1Nc1c(-c2ccncc2C#C[C@@]2(C)CCCN2C(=O)/C=C/CN(C)C)[nH]c2c1C(=O)NCC2,"cell-free assay, competition with immobilised ligand",3 µM,,remaining binding,87%
O=C=[N][Ru-4]123([n]4c5ccc(O)cc5c5c6c(c7cc(F)c[n+]1c7c54)C(=O)NC6=O)[S+]1CC[S+]2CC[S+]3CC1 (stereo not shown),enzyme activity,"100 nM, human enzyme, together with: 10 µM ATP",baseline: untreated,remaining activity,98%
CC(C)=CC1OC(C)(C)C2C=C3C(=O)C(Cl)=CC(O)C3C3C(O)C4OC4C(=O)C132 (stereo not shown),"cell-free assay, competition with immobilised ligand",10 µM,,remaining binding,98%

# Excerpt of the above:
SMILES,test,conditions,how to read,quantity,value
COc1cc(Nc2nccc(-c3cnn4nc(OC)ccc34)n2)cc(C(F)(F)F)c1,"binding, competition with immobilised ligand",1 µM,,remaining binding,75%
O=C=[N][Ru-4]123([n]4c5ccc(O)cc5c5c6c(c7cc(F)c[n+]1c7c54)C(=O)NC6=O)[S+]1CC[S+]2CC[S+]3CC1 (stereo not shown),enzyme activity,"100 nM, human enzyme, together with: 10 µM ATP",baseline: untreated,remaining activity,98%
